Measured values collected from several papers.
Compare with care: the assays were run in different laboratories. Numbers after ± are the reported error.

Compound | cell line | test | conditions | IC50
NC(=NN=Cc1cccs1)[S][Ru+]([Cl])([P](c1ccccc1)(c1ccccc1)c1ccccc1)[P](c1ccccc1)(c1ccccc1)c1ccccc1.[Cl-] | HCC70 | cell growth or viability, resazurin | 96 h | 6.26 µM
CC(C)OC(=O)C(n1cccn1)n1cccn1.F[P-](F)(F)(F)(F)F.[Cu+].c1ccc(P(c2ccccc2)c2ccccc2)cc1 | U-1285 | cell viability, MTT | – | 6.8 ± 0.8 µM
O=C(Cc1ccc2ccccc2c1)N[C@H](Cc1ccccc1)C(=O)N[C@H](Cc1ccc(O)cc1)C(=O)N[C@H](Cc1ccccc1)C(=O)N[C@H](Cc1ccc(O)cc1)C(=O)O | SAOS-2 | cell growth or viability, MTT | – | > 500 µg/mL
O=C(O)c1ccc([S][Au][PH](c2ccccc2)(c2ccccc2)[c-]2cccc2)cc1.[Fe+2].c1cc[cH-]c1 | CAKI-1 | cell growth or viability, XTT | 72 h | 3.6 µM
CNC(=O)c1cc(Oc2ccc(NC(=O)CCC(=O)OC3OC4OC5(C)CCC6C(C)CCC(C3C)C46OO5)cc2)ccn1 (stereo not shown) | Huh-7 | cell growth or viability, MTT | 72 h | 12.6 µM
Cc1cc(C)c(S(=O)(=O)N2CC2C(N)=O)c(C)c1 (stereo not shown) | Caco-2 | cell growth or viability, MTT | 48 h | 236 µM
CC[C@H](C)[C@H](NC(=O)[C@H](C)NC(=O)[C@@H](N)Cc1c[nH]cn1)C(=O)N[C@@H](Cc1ccc(O)cc1)C(=O)N1CCC[C@H]1C(=O)N[C@@H](CCCNC(=N)N)C(=O)N[C@@H](Cc1c[nH]cn1)C(=O)N[C@H](CO)C(=O)N[C@H](Cc1c[nH]c2ccccc12)C(=O)N[C@@H](C(=O)N[C@H](Cc1c[nH]c2ccccc12)C(=O)N[C@H](CCC(=O)O)C(=O)N[C@H](CCCCN)C(=O)N[C@H](CCCCN)C(=O)N[C@H](CC(C)C)C(=O)N[C@H](CCC(=O)O)C(=O)N[C@@H](C(=O)N[C@H](C)C(=O)N[C@@H](C(=O)N[C@H](CC(N)=O)C(=O)N[C@H](CC(C)C)C(=O)N[C@H](C)C(=O)N[C@H](Cc1c[nH]c2ccccc12)C(=O)N[C@@H](C(=O)N[C@H](C)C(=O)NCC(=O)N[C@H](CC(N)=O)C(=O)N[C@H](CO)C(=O)N[C@H](CC(N)=O)C(=O)N[C@H](CCCCN)C(=O)N[C@H](Cc1c[nH]c2ccccc12)C(=O)N[C@@H](C(=O)N[C@H](Cc1c[nH]c2ccccc12)C(=O)N[C@H](CCCCN)C(=O)O)[C@H](C)O)[C@H](C)O)C(C)C)[C@H](C)O)[C@H](C)O | CLL patient PBMCs | cell death, PI staining flow cytometry | 90 min, room temperature, serum-free medium | 1.2 µM
Cc1cc(C)c(-n2ccn(-c3c(C)cc(C)cc3C)c2=[Se])c(C)c1.[Cl][Au] | LoVo-OXP (oxaliplatin-resistant) | MTT | 72 h | 2.3 ± 0.6 µM
COc1cc(-c2oc3cc(O)c(OC)c(O)c3c(=O)c2OC)ccc1O | human Neutrophil | superoxide release, inhibitor, absorbance | – | 4.76 µM
CCC(C)C1OC(=O)C(NC(=O)c2cccc(NC=O)c2O)C(C)OC(=O)C(C(C)CC)OC(=O)C(C)(C)C(=O)C(Cc2ccccc2)OC1=O (stereo not shown) | SGC-7901/DDP cisplatin-resistant | cell viability, CCK-8 | 72 h | 0.0017 ± 0.0002 µM

Excerpt of the above:
Compound | cell line | test | conditions | IC50
Cc1cc(C)c(S(=O)(=O)N2CC2C(N)=O)c(C)c1 (stereo not shown) | Caco-2 | cell growth or viability, MTT | 48 h | 236 µM
